Measured values gathered from unrelated publications.
Lines come from different studies, so protocols differ. Values joined by “and” are separate records of one study, mostly repeats; a detail may differ.
Cell line: HL-60

The phototherapeutic index of `F[P-](F)(F)(F)(F)F.F[P-](F)(F)(F)(F)F.[Ru+2].c1ccc(-c2ccccn2)nc1.c1ccc(-c2ccccn2)nc1.c1csc(-c2cc3cccnc3c3ncccc23)c1` is reported as greater than 44 (cell viability; visible light; baseline: dark EC50 over light EC50).
The inhibition of `CC12OOC(C)(OO1)C2CCC(=O)NCCNc1ccnc2cc(Cl)ccc12` (stereo not shown) is reported as 74% (cell growth or viability, resazurin; 10 µM, 48 h).
For `CC1=CCC23OC2(C)CCC2C(C[N+](C)(C)C)C(=O)OC2C13.[I-]` (stereo not shown), the inhibition was 80.3% (cell growth or viability, SRB; 8.3 µM).
With `F[P-](F)(F)(F)(F)F.F[P-](F)(F)(F)(F)F.[Ru+2].c1ccc(-c2ccccn2)nc1.c1ccc(-c2ccccn2)nc1.c1csc(-c2ccc(-c3ccc(-c4cc5cccnc5c5ncccc45)s3)s2)c1` the EC50 was > 100 µM and 168 µM (cell growth or viability, resazurin; dark).
`CC(=C(c1ccc(O)cc1)c1ccc(Cl)cc1)c1ccc(Cl)cc1` gave a GI50 of 0.64 µM (cell growth or viability, SRB).
The IC50 of `CN(C)CC1C(=O)OC2C1CCC1(C)CC1CCC1(C)OC21` (stereo not shown) is reported as 6.5 µM (cell growth or viability, resazurin).
The inhibition of `CC12OOC(C)(OO1)C2CCC(=O)OCCNc1ccnc2cc(Cl)ccc12` (stereo not shown) is reported as 65.2% (cell growth or viability, resazurin; 10 µM, 48 h).
With `CC[C@H](C)[C@H](NC(=O)[C@H](CCCNC(=N)N)NC(=O)[C@H](CCCNC(=N)N)NC(=O)[C@H](CC(C)C)NC(=O)[C@H](Cc1c[nH]c2ccccc12)NC(=O)[C@H](CCCCN)NC(=O)[C@H](CCCNC(=N)N)NC(=O)[C@H](CCCCN)NC(=O)[C@H](CCCNC(=N)N)NC(=O)[C@H](CCCNC(=N)N)NC(=O)CN)C(=O)NCC(=O)N[C@@H](CCCCN)C(=O)NCC(=O)N[C@H](C(=O)N[C@@H](CCCCN)C(=O)N[C@H](C(=O)N[C@H](C(=O)NCC(=O)NCC(=O)N[C@@H](C)C(=O)N[C@@H](C)C(=O)N[C@@H](CC(C)C)C(=O)N[C@@H](CC(=O)O)C(=O)N[C@@H](Cc1c[nH]cn1)C(=O)N[C@@H](CC(C)C)C(N)=O)[C@@H](C)CC)[C@@H](C)CC)C(C)C` the lysed cells was 30% (32 µg/mL, 5 min).
`CC1CCC2C(C)C(OC(=O)CCC(=O)N(CCCc3cn(-c4ccc(CN5CCOCC5)cc4)nn3)CCNc3ccnc4cc(Cl)ccc34)OC3OC4(C)CCC1C32OO4` (stereo not shown) has an inhibition of 63% (cell growth or viability, resazurin; 10 µM, 48 h).
`CC(Cc1ccc(Cl)cc1)=C(c1ccc(Cl)cc1)c1ccc(OCCN(C)C)cc1` has a GI50 of 3.89 µM (cell growth or viability, SRB).
